Published values collected from several papers.
Compare with care: the assays were run in different laboratories. ± gives the spread as reported.

C/C=C(\C)C(=O)N[C@@H](CCC(N)=O)C(=O)N[C@@H]1C(=O)N[C@@H](CCC(N)=O)C(=O)N[C@H]2CC[C@@H](O)N(C2=O)[C@@H](Cc2ccccc2)C(=O)N(C)[C@@H](Cc2ccc(O)cc2)C(=O)N[C@@H](C)C(=O)O[C@@H]1C (single isomer, unassigned) — inhibition (trypsin; enzyme activity, inhibitor; 50 µg/mL, pH 7.6, 37 °C, 10 min preincubation, with: N-α-benzoyl-DL-arginine-4-nitroanilide 1 mM): no inhibition
CN1CC[C@H](c2c(O)cc(O)c3c(=O)cc(-c4ccccc4F)oc23)[C@H](O)C1 — IC50 (CK1; kinase activity, inhibitor; with: ATP at Km): > 1000 nM
COc1ccc(CN[C@@H]2CO[C@H](C(c3ccccc3)c3ccccc3)C[C@H]2O)cc1 — inhibition (GABAA receptor; radioligand binding; 10 µM, with: [3H]muscimol): 0.6%
Cc1cc(N)nc(-c2ccc(CNCCc3cccc(F)c3)cc2)c1 — remaining activity (Bacillus subtilis NOS chimera; nitrite production, inhibitor; 30 µM, 4 min, 35 °C, with: NOHA 200 µM; baseline: no inhibitor): 13.2%
CC(C)(NC(=O)Nc1ccc(Cl)cc1)c1cccc(C(=N)NO)c1 — apparent Ki ratio (IMPDH 2, Staphylococcus aureus, Y446C; baseline: mutant over wild type): 300
CCCN(CCN1CCN(c2nccc3ccccc23)CC1)[C@H]1CCc2nc(N)sc2C1 — EC50 (dopamine D3 receptor, mouse; agonist; D2 receptor knockout mouse, nucleus accumbens membranes): 42.6 ± 25.8 nM
CC(=NO)c1cccc(C(C)(C)NC(=O)Nc2ccc(Cl)c(-c3nc(C(F)(F)F)cs3)c2)c1 — apparent Ki ratio (IMPDH 2, Staphylococcus aureus, G445S; baseline: mutant over wild type): 320
O=C(Oc1nsnc1N1CCCCC1)N1CCOCC1 — inhibition (trypsin; inhibitor; up to 300 µM, with: denatured BSA substrate): no inhibition
COc1ccc(OCC2c3cc(OC(C)C)ccc3CCN2C(=O)c2cccc(Cl)c2)cc1 (racemic) — effect on receptor activity (GluN1/GluN3 NMDA receptor; glycine-activated current; concentration not given): no effect
CC(C)(NC(=O)Nc1ccc(Cl)c(-c2nc(C(F)(F)F)cs2)c1)c1cccc(C(N)=NO)c1 — apparent Ki ratio (IMPDH 2, Staphylococcus aureus, G445S; baseline: mutant over wild type): 190
Nc1ccc2ccc(CCNCCCc3cccc(F)c3)cc2n1 — remaining activity (Bacillus subtilis NOS chimera; nitrite production, inhibitor; 30 µM, 4 min, 35 °C, with: NOHA 200 µM; baseline: no inhibitor): 6.1%
CCCCCCCCCC(=O)c1cc[nH]c1 — HapR protein level (HapR; Vibrio cholerae; 1 µM; baseline: DMSO): increased
Cc1ccc(-c2c(C=C(C#N)c3cnccn3)n(CCCO)c3ncnc(N)c23)cc1 — EC50 (RSK1 and RSK2, human; RSK1 and RSK2 occupancy; MDA-MB-231; 2 h, with: BODIPY-FMK probe 1 h): ~5 nM
O=C(O)c1cc2cc(Cl)cc(OCc3cn(CCC(=O)N4CCC(c5ccc(Cl)c(Cl)c5)CC4)nn3)c2c(Cl)c1OCc1cn(CCC(=O)N2CCC(c3ccc(Cl)c(Cl)c3)CC2)nn1 — selectivity ratio (mPTPB vs mammalian PTPs; enzyme activity, inhibitor, biochemical enzyme; baseline: mammalian PTP over mPTPB): > 25 fold
